# Measurements from different studies.
# Protocols differ between the studies behind these lines. Values joined by “and” are separate records of one study, mostly repeats; a detail may differ. ± marks the error that the study gave.
Structure (SMILES),test system,conditions,Cmin
C[C@H](CCC(=O)O[C@@H]1O[C@H](C(=O)O)[C@@H](O)[C@H](O)[C@H]1O)[C@H]1CC[C@H]2[C@@H]3[C@H](O)C[C@@H]4C[C@H](O)CC[C@]4(C)[C@H]3CC[C@]12C,"human, plasma",control,12.6 ± 1.7 nM
CCN(CCO)CCCC(C)Nc1ccnc2cc(Cl)ccc12 (stereo not drawn),"human, whole blood","oral, 800 mg",1530 ng/mL and 1900 ng/mL
O=C(O)CCCCCCCCCCCCCCCCC(=O)O,"human, plasma",endogenous baseline diurnal,61.2 ± 4 nM
Cc1ncnc2c1ccn2[C@@H]1C[C@H](Oc2cc(C(F)F)c(F)c3c2CNCC3)[C@@H](O)[C@H]1O,human,"oral, 6 mg twice daily",17.1 ng/mL
C[C@@H]1CCO[C@H]2Cn3cc(C(=O)NCc4ccc(F)cc4F)c(=O)c(O)c3C(=O)N12,"human, normal renal function, plasma","oral, dose not given, steady state, fixed-dose combination",1300 ng/mL
CCOc1c([C@H](C)n2nc(C)c3c(N)ncnc32)cc(Cl)c(F)c1[C@@H]1CNC(=O)C1,"human patients, all cohorts, plasma","oral, 20 mg, day 15, monotherapy",214 nM
C[C@H](CCC(=O)NCC(=O)O)[C@H]1CC[C@H]2[C@@H]3CC[C@@H]4C[C@H](O)CC[C@]4(C)[C@H]3C[C@H](O)[C@]12C,"human, plasma","oral, dose not given, control",49.8 ± 10.3 nM
C[C@@H]1CCO[C@H]2Cn3cc(C(=O)NCc4ccc(F)cc4F)c(=O)c(O[C@@H]4O[C@H](C(=O)O)[C@@H](O)[C@H](O)[C@H]4O)c3C(=O)N12,"human, haemodialysis patients, plasma","dose not given, steady state",800 ng/mL
Cn1cc(-c2cn3nccc3c(-c3cnn([C@]4(CC#N)C[C@@H](C#N)C4)c3)n2)cn1,"healthy humans, plasma","oral, 10 mg twice daily, day 200, fed",55 ng/mL
Cc1cc(/C=C/C#N)cc(C)c1Nc1ccnc(Nc2ccc(C#N)cc2)n1,"human, haemodialysis patients, plasma","oral, dose not given, steady state, fixed-dose combination",50 ng/mL
CCCCOCCOc1ccc(-c2ccc3c(c2)/C=C(/C(=O)Nc2ccc([S@@+]([O-])Cc4cncn4CCC)cc2)CCCN3CC(C)C)cc1,"human, mild hepatic impairment, plasma","oral, 150 mg, day 1",80.7 ng/mL
CC(C)CCC[C@@H](C)[C@H]1CC[C@H]2[C@@H]3C(O)CC4=CC(=O)CC[C@]4(C)[C@H]3CC[C@]12C (stereo partly drawn),"human, plasma","oral, dose not given, control",38.9 ± 6 nM
O=C(O)CCC(=O)O.[2H]C([2H])([2H])Oc1cc(C)c2[nH]ccc2c1CN1CC[C@@H](C2CC2)C[C@H]1c1ccc(C(=O)O)cc1,"human, plasma","300 mg once daily, day 10, multiple ascending dose, geometric mean",3230 ng/mL
O=C(O)CCCCCCCCCCCCCCC(=O)O,"human, plasma","oral, dose not given, control",104 ± 14 nM
Fc1ccc([C@@H]2CCNC[C@H]2COc2ccc3c(c2)OCO3)cc1,"human, CYP2D6 poor metabolizers, plasma","oral, 20 mg, steady state",26 ng/mL
